Measured values pooled from the literature.
Numbered parts are unrelated; each lists some results of a single study.

Series 1 — technique: protein binding microarray; form: double-stranded DNA, one strand shown; medium: in vitro; tested at: not given; reference: not given; direction: higher = stronger binding; endpoint: E-score
Target: Histone acetyltransferase KAT6A, winged helix 1, GST fusion (KAT6A, Homo sapiens, UniProt Q92794, residues 1-85)
Setting: 8-mer, flanks averaged, mean of 2 arrays, mostly near background
Construct (chain): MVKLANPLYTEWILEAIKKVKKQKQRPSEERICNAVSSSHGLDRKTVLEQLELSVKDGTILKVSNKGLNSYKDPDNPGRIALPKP
Oligonucleotide = CGGGCGGA; result = 0.336
Oligonucleotide = TAACCGCA; result = 0.105
Oligonucleotide = AATAACAT; result = 0.00236

Series 2 — technique: protein-binding microarray; form: double-stranded DNA, one strand shown; medium: in vitro; tested at: 250 nM; setting: 60-bp whole probe; together with: salmon DNA 0.4 mg/ml; reference: random background probes; direction: higher = stronger binding; endpoint: log fluorescence
Target: Interferon regulatory factor 7, full length, phosphomimetic (IRF7, Homo sapiens, UniProt Q92985, residues 1-503, S101K/S471D/S472D/S475D/S476D/S477D/S483D/S484D/S487D)
Chain of UniProt Q92985 (whole entry, unmodified, looked up): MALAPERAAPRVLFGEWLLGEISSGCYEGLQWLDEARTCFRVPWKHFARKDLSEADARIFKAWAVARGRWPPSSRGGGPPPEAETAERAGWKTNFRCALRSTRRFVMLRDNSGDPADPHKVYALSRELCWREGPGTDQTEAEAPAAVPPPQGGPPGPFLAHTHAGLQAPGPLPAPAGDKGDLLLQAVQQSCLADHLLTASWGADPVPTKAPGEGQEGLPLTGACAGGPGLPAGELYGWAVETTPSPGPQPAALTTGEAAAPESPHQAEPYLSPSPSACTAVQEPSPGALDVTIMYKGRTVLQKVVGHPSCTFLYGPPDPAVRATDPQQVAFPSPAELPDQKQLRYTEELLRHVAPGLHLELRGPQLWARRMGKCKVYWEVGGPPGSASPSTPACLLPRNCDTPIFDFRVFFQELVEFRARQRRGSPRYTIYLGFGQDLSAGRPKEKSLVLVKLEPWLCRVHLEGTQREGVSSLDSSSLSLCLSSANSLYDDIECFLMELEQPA
Oligonucleotide = GCCTAGCACGACGATATCGGGTTTCGTGACGTGCTAGTCTTGATTCGCTTGACGCTGCTG; result = 1.02 z-score
Oligonucleotide = GCCTAGCACTTAGATTTCGCGTATCGATTAGTGCTAGTCTTGATTCGCTTGACGCTGCTG; result = 1.08 z-score
Oligonucleotide = GCCTAGCACTTAGGACTGGGTAACGGTTAGTGCTAGGTCTTGATTCGCTTGACGCTGCTG; result = 0.0804 z-score
Oligonucleotide = GCCTAGCACGAACCTTCCCCTCTAGGTTCGTGCTAGGTCTTGATTCGCTTGACGCTGCTG; result = 2.76 z-score

Series 3 — technique: aptamer microarray, sandwich; form: DNA with 2'F-ANA; medium: in vitro; tested at: 200 nM; together with: Cy3 exosite-II aptamer, 400 nM; direction: higher = stronger binding; endpoint: mean fluorescence intensity; oligonucleotide: GGTTGGTGTGGTTGG
Target: Prothrombin, mature alpha-thrombin (F2, Homo sapiens, UniProt P00734)
Setting: whole 15-mer aptamer, many near background
Modification = 2'F-ANA at 1 2 3 6 7 10 11 13 14; result = 61.2 a.u.
Modification = 2'F-ANA at 7 8 9 10 12 15; result = 230 a.u.
Modification = 2'F-ANA at 1 3 8 9 11 12 14 15; result = 172 a.u.
Modification = 2'F-ANA at 1 2 3 4 5 6 8 9 12 15; result = 128 a.u.
Modification = 2'F-ANA at 1 2 3 4 5 7 8 12 13 14; result = 54.1 a.u.

Further values, each from its own experiment
Molecule = PhoQ, residues 284 288 289 292 302 303 TYGVAM; target = PhoP, residues 12 14 15 18 19 QQAYL (Escherichia coli, UniProt P23836); assay = Sort-seq, measured: YFP reporter; system = E. coli; conditions = PhoQ-PhoP variant library, together with: 10 µM Mg2+; scale = reference: high Mg2+ state, higher = stronger signaling; endpoint = fold induction; result = 7.89

A few entries again (series 1):
Oligonucleotide = AATAACAT; result = 0.00236
